Measured values from different studies.
A part holds a random share of what one study measured.

Series 1
Cell line: HEK-293T/ACE2
Concentration: concentration not given
Time: 16 (unit not given)
Relative to: vehicle
Endpoint: viability
C[C@@H]1O[C@@H]1P(=O)(O)O: 106%
CC(=O)OC(C)C[N+](C)(C)C (stereo not drawn): 101%
COc1ccnc(C[S+]([O-])c2nc3ccc(OC(F)F)cc3[nH]2)c1OC (stereo not drawn): 104%
Cc1ccc(=O)n(-c2ccccc2)c1: 98.2%

Series 2
Target: Replicase polyprotein 1ab, main protease (rep, Severe acute respiratory syndrome coronavirus 2, UniProt P0DTD1)
Read-out: enzyme activity
Mode: inhibitor
Concentration: 20 µM
Setting: hit confirmation, no DTT
Endpoint: inhibition
O=C(O)C1=CC(=C(c2ccc(O)c(C(=O)O)c2)c2ccc(O)c(C(=O)O)c2)C=CC1=O: 95.6%
CC1(C)C(/C=C/C=C/C=C/C=C2\N(CCCCS(=O)(=O)[O-])c3ccc4ccccc4c3C2(C)C)=[N+](CCCCS(=O)(=O)[O-])c2ccc3ccccc3c21.[Na+]: 60%
O=C(/C=C/c1ccc2ccc(C(F)(F)F)cc2n1)c1ccncc1: 79.2%
COCCCOc1ccnc(C[S+]([O-])c2nc3ccccc3[nH]2)c1C (stereo not drawn): 94.2%

Series 3
Target: Replicase polyprotein 1ab, polymerase (rep, Severe acute respiratory syndrome coronavirus 2, UniProt P0DTD1)
Read-out: enzyme activity
Mode: inhibitor
Concentration: 20 µM
Endpoint: inhibition
O[C@H]1CC[C@H](Nc2nc(-c3ccccc3)nc3[nH]ccc23)CC1: -2.72%
NC(=O)c1ccc(F)c2c1C[C@@H](N(C1CCC1)C1CCC1)CO2: -0.38%
CC1CCN(C(c2ccc(F)cc2)c2ccc(C(C)C(=O)O)cc2-c2ccc(C(F)(F)F)cc2)CC1 (stereo not drawn): 0.64%
Nc1ncn([C@H]2C[C@H](O)[C@@H](CO)O2)c(=O)n1: 2.45%
O=C(O)c1ccc[n+]([O-])c1: 3.52%
Cc1c(S(=O)(=O)O)oc2c1C(=O)C(=O)c1c-2ccc2c1CCCC2(C)C: 8.79%
Cc1c(Cl)cccc1S(=O)(=O)Nc1nc(NCCc2ccccc2)nc2c1CN(Cc1ccccc1)CC2: 14%
O=[N+]([O-])c1ccc2nc(COCc3nc4ccc([N+](=O)[O-])cc4[nH]3)[nH]c2c1: -4.84%
CC(C)[C@@H](C)/C=C/[C@@H](C)[C@H]1CC[C@H]2C3=CC=C4C[C@@H](O)CC[C@]4(C)[C@H]3CC[C@]12C: -13.2%
C[C@H](Oc1cc(-c2cnn(C3CCNCC3)c2)cnc1N)c1c(Cl)ccc(F)c1Cl: 18.8%
N=c1ccn2c(n1)O[C@H]1[C@H](O)[C@@H](CO)O[C@H]12: -2.54%
O=C(O)CCNC(=O)c1ccccc1: -1.98%
C=C(C)[C@@H]1CC[C@]2(CO)CC[C@]3(C)[C@H](CC[C@@H]4[C@@]5(C)CC[C@H](O)C(C)(C)[C@@H]5CC[C@]43C)[C@@H]12: -2.73%
O=C(O)C(=O)CBr: -4.28%
O=C1[C@H](Cc2ccc(O)cc2)N2C(=O)CCN(C(=O)NCc3ccccc3)[C@H]2CN1Cc1cccc2ccccc12: 4.23%
C=CC[C@@H]1/C=C(\C)C[C@H](C)C[C@H](OC)[C@H]2O[C@@](O)(C(=O)C(=O)N3CCCC[C@H]3C(=O)O[C@H](/C(C)=C/[C@@H]3CC[C@@H](O)[C@H](OC)C3)[C@H](C)[C@@H](O)CC1=O)[C@H](C)C[C@@H]2OC: 0.05%
CC(/C=C1\SC(=S)N(CC(=O)O)C1=O)=C\c1ccccc1: 0.29%
Cc1ccccc1C(C(=O)NC1CCCCC1)N(C(=O)Cn1ccnc1C)c1cccc(F)c1 (stereo not drawn): -3.25%
CCCc1nn(C)c2c(=O)[nH]c(-c3cc(S(=O)(=O)N4CCN(C)CC4)ccc3OCC)nc12: -5.22%
COc1ccccc1OCC(O)COC(N)=O (stereo not drawn): 19%
CCCN(CCC)C(=O)C(CCC(=O)OCCCN1CCN(CCOC(=O)Cc2c(C)n(C(=O)c3ccc(Cl)cc3)c3ccc(OC)cc23)CC1)NC(=O)c1ccccc1 (stereo not drawn): -3.89%
O=C1C(=O)N(Cc2ccc(Cl)c(Cl)c2)c2ccccc21: 13.2%
O=C1NCCc2[nH]c(-c3ccncc3)cc21: -4.69%
C[C@]12CC[C@H]3[C@@H](CCC4=CC(=O)CC[C@@H]43)[C@@H]1CC[C@@H]2O: -2.02%

Series 4
Target: Ras GTPase-activating protein-binding protein 1, C-terminal RGG region (G3BP1, Homo sapiens, UniProt Q13283)
Sequence of UniProt Q13283 (whole entry, looked up): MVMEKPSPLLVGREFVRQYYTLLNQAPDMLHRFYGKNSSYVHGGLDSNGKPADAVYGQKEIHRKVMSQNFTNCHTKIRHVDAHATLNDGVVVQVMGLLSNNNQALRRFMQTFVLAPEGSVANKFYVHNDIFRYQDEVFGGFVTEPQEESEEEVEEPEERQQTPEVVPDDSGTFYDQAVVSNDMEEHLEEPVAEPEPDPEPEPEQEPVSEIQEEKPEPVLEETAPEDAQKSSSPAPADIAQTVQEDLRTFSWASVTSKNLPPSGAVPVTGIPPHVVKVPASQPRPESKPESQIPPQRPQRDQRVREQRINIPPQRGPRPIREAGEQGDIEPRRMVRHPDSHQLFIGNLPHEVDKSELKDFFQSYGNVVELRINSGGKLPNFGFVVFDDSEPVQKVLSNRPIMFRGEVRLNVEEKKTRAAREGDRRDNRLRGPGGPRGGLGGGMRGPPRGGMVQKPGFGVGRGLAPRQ
Technique: RNA Bind-n-Seq
Molecule type: RNA
Matrix: in vitro
Concentration: 1 µM
Setting: whole 134-nt RNA, ends assumed
Added: 150 mM KCl
Relative to: input library
Direction: higher = stronger binding
Endpoint: log2 enrichment
Shared flanks, not repeated: GGGAGUUCUACAGUCCGACGAUC … UGGAAUUCUCGGGUGUCAAGG
UCAAGUCCUGUGCUACACAUCGUAUGUACCGAAUCGGGCCCGGCCCGGGCCCGGAAAGUAUUAUGUUACGCCGUUCGGAUCUGCACUUCC: -1.5
AGUCCUGUGCUACACAUCGUAUGUACCGAAUCGGAAAAAGGAAAAAGGAAAAAGGGGAAAGUAUUAUGUUACGCCGUUCGGAUCUGCACU: -1.75
CCUGUGCUACACAUCGUAUGUACCGAAUCGGCCCCCCCGGGCCCCCCCGGCCCCCCCGGGAAAGUAUUAUGUUACGCCGUUCGGAUCUGC: -1.4
CUCAAGUCCUGUGCUACACAUCGUAUGUACCGAAUCGGAAAAAAAGGUGGUGGAAAGUAUUAUGUUACGCCGUUCGGAUCUGCACUUCCA: -1.23
GCAGGAAGUAAAAACAAAUGGAAAUGCUUCGGAUAGUGGCAGGGGUGGAGGUUGCUAAGGAAAGGGUGGGAUGGGAGUGGGUAAAGAGUU: 0.701
CCUCAAGUCCUGUGCUACACAUCGUAUGUACCGAAUCGGCCGGCCGGGCCGGGAAAGUAUUAUGUUACGCCGUUCGGAUCUGCACUUCCA: -1.07
AAGUCCUGUGCUACACAUCGUAUGUACCGAAUCGGGGUUUUUGGGGAGGGGUGGGGAAAGUAUUAUGUUACGCCGUUCGGAUCUGCACUU: 2
AAGUCCUGUGCUACACAUCGUAUGUACCGAAUCGGAAAAAAAGGAAAAAAAGGAGGAAAGUAUUAUGUUACGCCGUUCGGAUCUGCACUU: -2.04

Series 5
Target: Hepatocyte nuclear factor 3-alpha (Foxa1, Mus musculus, UniProt P35582, residues 1-468, full length assumed)
Technique: EMSA with sequencing
Molecule type: double-stranded DNA, one strand shown
Matrix: in vitro
Concentration: 10 and 20 nM
Setting: whole designed probe, mean of two concentrations, ends assumed
Relative to: negative control set to 0
Direction: higher = stronger binding
Endpoint: normalised bound fraction
Shared flanks, not repeated: GTGAGCGGTGCCCATTGATGGGGAAC … TTTCACTGGGATCGTGGGGAC
Residues (chain): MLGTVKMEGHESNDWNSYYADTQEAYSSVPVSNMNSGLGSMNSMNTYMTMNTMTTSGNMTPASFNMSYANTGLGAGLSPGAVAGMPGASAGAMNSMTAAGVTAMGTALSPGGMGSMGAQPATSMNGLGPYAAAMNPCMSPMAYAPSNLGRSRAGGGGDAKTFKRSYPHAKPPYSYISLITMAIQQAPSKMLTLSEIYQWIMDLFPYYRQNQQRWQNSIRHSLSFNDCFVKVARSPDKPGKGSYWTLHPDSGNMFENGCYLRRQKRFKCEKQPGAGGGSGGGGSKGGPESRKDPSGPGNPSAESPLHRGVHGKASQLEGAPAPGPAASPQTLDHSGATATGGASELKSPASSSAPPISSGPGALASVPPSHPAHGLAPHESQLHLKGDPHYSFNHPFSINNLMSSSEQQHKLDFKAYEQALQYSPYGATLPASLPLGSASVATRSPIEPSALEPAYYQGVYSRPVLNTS
ATCTTCCCCCTCTTCCTTGCCCCACCAGCTCACCTTCCCGGGTTATTTGCAGATAGGAAAATAAATAAAGCCGGCATTCGTTAACGCAGTTCTGGCGCAAACTGCTGTTTGCTCTGGATCTAACATGGTCCTTTGGCGACGCCAGGCTCCGGGAGAGCAAAGCACCGTGTCAGGGCCATGATCCGGGCTCGCC: 0.347 ratio
ATCTTCCCCCTCTTCCTTGCCCCACCAGCTCACCTTCCAGCGTTCTGTGAGTTAAAGGAAATAAATAAAGCCGGCATTCGTTAACCCTCTTCTGGCGCAAACTGCTGTTTGCTCTGGATGAATCATGGTCCTTTGGCGACGCCAGGCTCCGGGAGAGCAAAGCACCGTGTCAGGGCCATGATCCGGGGTGGCC: 0.236 ratio
TCAAGCATAAGCTACAACTTGCTGGCTCCCCATCTCCCAACAGAAAAAAAAAAAAAAAACCAACAAAACTATGGCCCTGAGAGGATGGCTCTGTATTTACATTCAGCATCATATATCAGCATTTACCAGGGTGAGGCCAATGGCTGTCAACTCCTGGCTCTTAGTCAATATTTAATCACTGTTCAGTTATGTA: 0.307 ratio
CTTGCTGATTGCTAGCACAGCAGTCTGAGATCAAACTGCAAGGCGGCAGCAAGGCTGGGGGAGGGGCGCCCGCCATTGCCCAGGCTTGCTTAGGTAATCTAAGCAGCCTGGAAGCTCGTACTGGGTGGAGCCCACGACGCTCAAGGAGGCCTGCCTGCCTCTGTAGGCTCCACCTCTGGGGGCAGGGCACAGA: -0.0615 ratio
CAATGGGGTAGGTCAGCCCCAGTGAACTCTCAAATGACCACTGAAGGAGGAAGTGAGTGCAGAGTGTGATACCACTCACATCCCAGCCCAGACTGTTTGCTCAGCTGGTTCTTCCTGCAGAGGAGTGTTGCAATTCGAGATAACACCCCTTCTCATGGCTTCAGGCATCACCTATCTCCTCTAGGCTGCGCTC: 0.222 ratio
AATGTGAGCCATCTCCCGACACTCCGAGTTAATCTATAATGGAGTATTAGCACTGAGACACTGTATATGCCCCTGTCATCCTTTCCCCCAAAGTAATCTAGGGAAAGCCACACAGGCTTTAACACATAATACCTTACTTAATTCCATCAAACAGTGTCCTGAGACTCAGGATTGATAAAATACTGCAGTTCAA: -0.0422 ratio
CCCTCATCCTGGGTGTCGGGGTGGGAGGTGTTCTCATCATGAATGGGAGGCGTACCCAGATCCAGCTCTGCCTTTTTTTAACCAAACCAGAGTGTAAACAAATGGCTGTTAAGTGACTCACCATCGACATAGCAAGATATGATACATGCCAGGAGAGAAAAAGAAAGTGCTGATGGAAAAATAATCTCATTAG: 0.329 ratio
TCCTGGCAGCACAAACGACTGAATAACAATTAAACAAAACAGGACAGTCTCCGTGTTTCAAAATGCGCATTTAAACCTAAAAGAAACACGGTGTGTTTACTTTCTGAGCCTGGCCTTCCCTGGGTGCACAGTGAGCCACTTCTGAAAGCGTATGGGCACACCCGCTACAGAAACCAGCTTACACTGGCTCGGT: 0.367 ratio
